{"data": "Assay results gathered from unrelated publications", "target": "Alpha-glucosidase MAL12 (MAL12, Saccharomyces cerevisiae S288c, UniProt P53341)", "note": "Protocols differ between the studies behind these lines. “And” joins repeats or separate records; there may be more than shown. ± marks the error that the study gave.", "UniProt P53341, sequence (whole entry, looked up)": "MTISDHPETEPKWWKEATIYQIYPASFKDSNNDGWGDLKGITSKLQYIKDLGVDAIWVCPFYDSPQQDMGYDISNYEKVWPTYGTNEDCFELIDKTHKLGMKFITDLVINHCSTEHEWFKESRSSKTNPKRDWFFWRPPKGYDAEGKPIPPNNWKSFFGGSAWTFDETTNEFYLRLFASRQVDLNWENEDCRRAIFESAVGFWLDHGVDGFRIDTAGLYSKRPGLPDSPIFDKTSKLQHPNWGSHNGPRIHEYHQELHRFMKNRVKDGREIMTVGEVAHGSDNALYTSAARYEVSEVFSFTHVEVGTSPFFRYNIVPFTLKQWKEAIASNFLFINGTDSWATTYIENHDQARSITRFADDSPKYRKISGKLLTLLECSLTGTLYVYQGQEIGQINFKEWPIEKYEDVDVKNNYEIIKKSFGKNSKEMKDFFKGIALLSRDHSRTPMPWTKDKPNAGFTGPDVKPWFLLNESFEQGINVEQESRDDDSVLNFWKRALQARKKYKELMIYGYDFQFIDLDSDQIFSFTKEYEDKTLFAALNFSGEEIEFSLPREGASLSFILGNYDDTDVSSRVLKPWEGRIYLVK"}
{"Structure (SMILES)": "O=c1c(/C=N/NC(=S)NCCc2ccccc2)coc2cc(F)ccc12", "effect on": "enzyme activity", "action": "inhibitor", "concentration": "500 µM", "inhibition": "90.4%"}
{"Structure (SMILES)": "CCOC(=O)NCc1ccc(O)cc1", "action": "inhibitor", "concentration": "100 µg/mL", "time": "0.4167 h", "together with": "p-nitrophenyl glucoside substrate", "inhibition": "28.2 ± 0.83%"}
{"Structure (SMILES)": "COc1cccc(C2NCCc3cc(O)c(O)cc32)c1 (stereo not shown)", "effect on": "enzyme activity", "action": "inhibitor", "concentration": "100 µM", "notes": "DMSO solvent", "together with": "pNPG substrate", "inhibition": "59.9 ± 3.32%"}
{"Structure (SMILES)": "COc1ccc(-c2c(C)oc3c(Cn4cccn4)c(O)ccc3c2=O)cc1", "action": "inhibitor", "concentration": "25 µM", "inhibition": "15.2%"}
{"Structure (SMILES)": "Cc1ccc(NC(=S)N/N=C/c2coc3cc(F)ccc3c2=O)c(C)c1", "effect on": "enzyme activity", "action": "inhibitor", "concentration": "500 µM", "inhibition": "89.8%"}
{"Structure (SMILES)": "CCCCCCCCCCCCCCCC1NCCc2cc(O)c(O)cc21 (stereo not shown)", "effect on": "enzyme activity", "action": "inhibitor", "concentration": "100 µM", "notes": "DMSO solvent", "together with": "pNPG substrate", "inhibition": "71.5 ± 1.08%"}
{"Structure (SMILES)": "O=CNCc1ccc(O)cc1", "action": "inhibitor", "concentration": "100 µg/mL", "time": "0.4167 h", "together with": "p-nitrophenyl glucoside substrate", "inhibition": "44.2 ± 2.99%"}
{"Structure (SMILES)": "CCCCCCCCCCCCCCNC(=O)/C=C/c1ccc(O)c(O)c1", "effect on": "enzyme activity", "concentration": "10 µM", "together with": "α-amylase present", "inhibition": "81.5 ± 0.89%"}
{"Structure (SMILES)": "COc1cc(C2NCCc3cc(O)c(O)cc32)cc(OC)c1O (stereo not shown)", "effect on": "enzyme activity", "action": "inhibitor", "concentration": "100 µM", "notes": "DMSO solvent", "together with": "pNPG substrate", "inhibition": "56.9 ± 1.14%"}
{"Structure (SMILES)": "O=Cc1ccc(O)cc1", "action": "inhibitor", "concentration": "100 µg/mL", "time": "0.4167 h", "together with": "p-nitrophenyl glucoside substrate", "inhibition": "26.1 ± 3.9%"}
{"Structure (SMILES)": "Cc1cc(=O)oc2ccc(-c3cc(-c4cccc([N+](=O)[O-])c4)nc(N)n3)c(O)c12", "effect on": "enzyme activity", "action": "inhibitor", "concentration": "concentration not given", "inhibition": "70.5 ± 1.23%"}
{"Structure (SMILES)": "Cc1cc(C)n(Cc2c(O)ccc3c(=O)c(C)c(C)oc23)n1", "action": "inhibitor", "concentration": "25 µM", "inhibition": "14.2%"}
{"Structure (SMILES)": "O=Cc1ccccc1O", "action": "inhibitor", "concentration": "100 µg/mL", "time": "0.4167 h", "together with": "p-nitrophenyl glucoside substrate", "inhibition": "32.2 ± 2.65%"}
{"Structure (SMILES)": "COc1ccc(-c2coc3c(Cn4cccn4)c(O)ccc3c2=O)cc1", "action": "inhibitor", "concentration": "25 µM", "inhibition": "39.2%"}
{"Structure (SMILES)": "CC(C)=CC1NCCc2cc(O)c(O)cc21 (stereo not shown)", "effect on": "enzyme activity", "action": "inhibitor", "concentration": "100 µM", "notes": "DMSO solvent", "together with": "pNPG substrate", "inhibition": "31 ± 2.47%"}
{"Structure (SMILES)": "COc1ccc(-c2c(C(F)(F)F)oc3c(Cn4cccn4)c(O)ccc3c2=O)cc1", "action": "inhibitor", "concentration": "25 µM", "inhibition": "21.5%"}
{"Structure (SMILES)": "O=c1c(/C=N/NC(=S)NC2CCCCC2)coc2cc(F)ccc12", "effect on": "enzyme activity", "action": "inhibitor", "concentration": "500 µM", "inhibition": "79.4%"}
{"Structure (SMILES)": "COc1cc(Cn2cnc3ccccc32)ccc1O", "action": "inhibitor", "concentration": "25 µM", "inhibition": "10.9%"}
{"Structure (SMILES)": "CC(C)CNC(=S)N/N=C/c1coc2cc(F)ccc2c1=O", "effect on": "enzyme activity", "action": "inhibitor", "concentration": "500 µM", "inhibition": "87.7%"}
{"Structure (SMILES)": "COc1ccc(-c2coc3c(Cn4ccnc4)c(O)ccc3c2=O)cc1", "action": "inhibitor", "concentration": "25 µM", "inhibition": "11.8%"}
{"Structure (SMILES)": "C[C@H]1O[C@H](O[C@H]2[C@H](O)[C@@H](O)[C@@H](O[C@H]3[C@H](O)[C@@H](O)C(O)O[C@@H]3CO)O[C@@H]2CO)[C@H](O)[C@@H](O)[C@@H]1N[C@H]1C=C(CO)[C@@H](O)[C@H](O)[C@H]1O (stereo partly shown)", "effect on": "enzyme activity", "action": "inhibitor", "concentration": "concentration not given", "inhibition": "98.2 ± 1.24%"}
{"Structure (SMILES)": "O=c1c(/C=N/NC(=S)Nc2cccc(Cl)c2Cl)coc2cc(F)ccc12", "effect on": "enzyme activity", "action": "inhibitor", "concentration": "500 µM", "inhibition": "92.5%"}
{"Structure (SMILES)": "COc1cc(C2NCCc3cc(O)c(O)cc32)ccc1O (stereo not shown)", "effect on": "enzyme activity", "action": "inhibitor", "concentration": "100 µM", "notes": "DMSO solvent", "together with": "pNPG substrate", "inhibition": "76.4 ± 1.43%"}
{"Structure (SMILES)": "O=c1c(/C=N/NC(=S)NCc2ccc(Cl)cc2)coc2cc(F)ccc12", "effect on": "enzyme activity", "action": "inhibitor", "concentration": "500 µM", "inhibition": "91.8%"}
{"Structure (SMILES)": "Cc1cc(=O)oc2ccc(-c3cc(-c4cccc(Cl)c4)nc(N)n3)c(O)c12", "effect on": "enzyme activity", "action": "inhibitor", "concentration": "concentration not given", "inhibition": "71.2 ± 1.23%"}
{"Structure (SMILES)": "O=c1c(/C=N/NC(=S)Nc2ccccc2C(F)(F)F)coc2cc(F)ccc12", "effect on": "enzyme activity", "action": "inhibitor", "concentration": "500 µM", "inhibition": "90.1%"}
{"Structure (SMILES)": "O=C(O)Cc1ccc(O)cc1", "action": "inhibitor", "concentration": "100 µg/mL", "time": "0.4167 h", "together with": "p-nitrophenyl glucoside substrate", "inhibition": "35.6 ± 4.86%"}
{"Structure (SMILES)": "CCCCCCCCCCCCCCCCCC1NCCc2cc(O)c(O)cc21 (stereo not shown)", "effect on": "enzyme activity", "action": "inhibitor", "concentration": "100 µM", "together with": "pNPG substrate", "inhibition": "58.1 ± 1.55%"}
{"Structure (SMILES)": "Oc1ccc(Cn2cnc3ccccc32)cc1", "action": "inhibitor", "concentration": "25 µM", "inhibition": "19.4%"}
{"Structure (SMILES)": "CCCCCCCCCCC1NCCc2cc(O)c(O)cc21 (stereo not shown)", "effect on": "enzyme activity", "action": "inhibitor", "concentration": "100 µM", "notes": "DMSO solvent", "together with": "pNPG substrate", "inhibition": "35.4 ± 0.54%"}
{"Structure (SMILES)": "O=c1c(O)c(-c2ccc(O)cc2)oc2cc(O)cc(O)c12", "effect on": "enzyme activity", "concentration": "concentration not given", "together with": "p-nitrophenyl α-D-glucoside substrate", "inhibition": "41.7% and 37.8%"}
{"Structure (SMILES)": "Oc1ccccc1Cn1cnc2ccccc21", "action": "inhibitor", "concentration": "25 µM", "inhibition": "24.2%"}
{"Structure (SMILES)": "O=c1c(/C=N/NC(=S)Nc2ccccc2)coc2cc(F)ccc12", "effect on": "enzyme activity", "action": "inhibitor", "concentration": "500 µM", "inhibition": "87.7%"}
{"Structure (SMILES)": "CCCCCCCCCC1NCCc2cc(O)c(O)cc21 (stereo not shown)", "effect on": "enzyme activity", "action": "inhibitor", "concentration": "100 µM", "notes": "DMSO solvent", "together with": "pNPG substrate", "inhibition": "42.8 ± 1.96%"}
{"note": "Some of these lines once more:"}
{"Structure (SMILES)": "COc1cc(C2NCCc3cc(O)c(O)cc32)cc(OC)c1O (stereo not shown)", "effect on": "enzyme activity", "action": "inhibitor", "concentration": "100 µM", "notes": "DMSO solvent", "together with": "pNPG substrate", "inhibition": "56.9 ± 1.14%"}
{"Structure (SMILES)": "O=Cc1ccc(O)cc1", "action": "inhibitor", "concentration": "100 µg/mL", "time": "0.4167 h", "together with": "p-nitrophenyl glucoside substrate", "inhibition": "26.1 ± 3.9%"}
{"Structure (SMILES)": "Cc1cc(=O)oc2ccc(-c3cc(-c4cccc([N+](=O)[O-])c4)nc(N)n3)c(O)c12", "effect on": "enzyme activity", "action": "inhibitor", "concentration": "concentration not given", "inhibition": "70.5 ± 1.23%"}
{"Structure (SMILES)": "Cc1cc(C)n(Cc2c(O)ccc3c(=O)c(C)c(C)oc23)n1", "action": "inhibitor", "concentration": "25 µM", "inhibition": "14.2%"}
{"Structure (SMILES)": "O=Cc1ccccc1O", "action": "inhibitor", "concentration": "100 µg/mL", "time": "0.4167 h", "together with": "p-nitrophenyl glucoside substrate", "inhibition": "32.2 ± 2.65%"}
